Measurements pooled from the literature.
Each line is one published result; not all experiments were run side by side. Numbers after ± are the reported error. Values after ≈ are worked out from the molar mass of the structure shown.

The AUC(0-12h) of `CCN1C(=O)CNc2ncc(-c3ccc(-c4nc[nH]n4)nc3C)nc21` is reported as 311 ng·h/mL (human, plasma; oral, 10 mg twice daily, first dose).
For `O=C(O)/C=C/c1ccc(O)c(O)c1`, the MRT(0-inf) was 13.2 ± 6.53 h (UPLC-MS/MS; Wistar rat, microcirculation dysfunction model, plasma; oral, 100 mg/kg Salvia miltiorrhiza stem-leaf extract FS).
`C[C@@H](CNCc1ccccc1)N1C[C@H](CCCNC(=N)N)N(CCc2cccc(F)c2)C1=S` gave an elimination half-life of 1.7 to 4.2 h (rat, plasma; intravenous, 5 mg/kg).
For `CCCC1O[C@@H]2C[C@H]3[C@@H]4CCC5=CC(=O)C=C[C@]5(C)[C@H]4[C@@H](O)C[C@]3(C)[C@]2(C(=O)CO)O1` (stereo partly drawn), the bioavailability was 59% (CD1 mice, plasma; subcutaneous, 0.2 mg/kg).
With `Cc1c(C(=O)NN2CCCCC2)nc(-c2ccc(Cl)cc2Cl)n1-c1ccc(OS(=O)(=O)CCC(F)(F)F)cc1` the plasma concentration was 2220 nM (LC-MS/MS; cynomolgus monkey 3; intravenous infusion, 6.0 mg/kg, 90 min, total, PET mid-point).
`C=CC(N)CCC(=O)O` (stereo not drawn): “elimination rate constant” 0.000222 s⁻¹ (male Sprague-Dawley rat, plasma; oral, 10 mg/kg, formulation 10, added: Sar 200 mg/kg).
With `O=C1N=C(N2CCOCC2)CN1c1ccc(Cl)cc1` the AUC(0-inf) was 116000 ng·h/mL (beagle dog, both sexes, plasma; oral, 30 mg/kg, tablets, fasted, day 0).
The haemolysis of `C=CC(=C)CC[C@]1(C)[C@H](C)C[C@H](OC(=O)CCCCC)[C@@]23C(=C[C@H](O)C[C@@H]12)[C@@H](OC(C)=O)O[C@H]3OC(C)=O` is reported as 19.6% (haemolysis; 100 µM).
For `CC1(C)C2CC[C@@]1(C)C(=O)/C2=C/c1cc2ccccc2o1`, the maximum hemolysis was < 14% (human red blood cells; 10 to 300 µg/mL, 30 min).
`[2H]C([2H])([2H])Oc1cc2c(cc1OC([2H])([2H])[2H])C1CC(=O)C(CC(C)C)CN1CC2` (stereo not drawn) has a dose-normalized AUC(0-inf) of 16.3 ng·h/mL (measured: deuterated α-HTBZ; healthy human volunteers, plasma; oral, 6 mg single dose, standard meal).
For `C[C@]12CC[C@@H]3c4ccc(O)cc4CC[C@H]3[C@@H]1C[C@@H](O)[C@@H]2O`, “mean serum concentration” read 0.0102 ng/mL (GC-MS; breast cancer women on NSAI, serum; vaginal, 0.03 mg daily, 8 h, day 28).
`O=C(O)[C@H](c1ccccc1Cl)N1CCc2sccc2C1` — result for “deviation from nominal”: -4% (HPLC-MS/MS; feline EDTA plasma; 12 h, -80 °C, storage stability).
`coproporphyrin I` gave an AUCtau ratio of 99.6% (measured: compound endogenous; human, plasma; concentration not given, added: rosuvastatin and finerenone; baseline: with over without finerenone).
`Cn1c([N+](=O)[O-])cnc1COc1ccc(S(C)(=O)=O)cc1`: “time above EC99” ≥ 24 h (BALB/c mouse, whole blood; oral, 200 mg/kg fexinidazole, single dose).
`CS(=O)(=O)Nc1ccc(C(=O)O[C@@H](Cc2c(Cl)c[n+]([O-])cc2Cl)c2ccc(OC(F)F)c(OCC3CC3)c2)cc1OCC1CC1` gave an AUC(0-12h) of 8.14 ng·h/mL (human, plasma; inhalation, 2000 µg twice daily, day 1, geometric mean).
`COCCNC(=O)c1ccc(OC2CCN(Cc3ccc(F)c(F)c3)CC2)c(Cl)c1` gave a maximum solubility of 100 µM (0.1 M sodium acetate with 0.01% Triton X-100; pH 5.5).
With `O=C(NC[C@H]1CN(c2ccc(N3CCOCC3=O)cc2)C(=O)O1)c1ccc(Cl)s1` the MRT(0-inf) was 7.43 ± 2.32 h (Sprague-Dawley rat, male, plasma; oral, 10 mg/kg, added: naringenin 10 mg/kg/day oral, 2 weeks).
For `Cc1nc2cccc(OCC(C)(C)C(=O)NC(C)C)c2c(N)c1C(=O)O`, the half-life was 0.94 h (male Sprague-Dawley rat, plasma; oral gavage, 30 mg/kg, day 7).
For `Cc1ccc(-c2ncc(Cl)cc2-c2ccc(S(C)(=O)=O)cc2)cn1`, the AUC(0-24 h) was 1110 ng·h/mL (hip replacement patients, CSF; oral, 120 mg at 0 h and 24 h).
Under “unbound tumour-to-plasma ratio Kp,uu”, `CN(C)C(=O)c1cc2cnc(Nc3ccc(N4CCNCC4)cn3)nc2n1C1CCCC1` is recorded as 1.35 (human, non-enhancing tumour; oral, 600 mg/day).
For `CO[C@H]1C[C@@H]2CC[C@@H](C)[C@@](O)(O2)C(=O)C(=O)N2CCCC[C@H]2C(=O)O[C@H]([C@H](C)C[C@@H]2CC[C@@H](O)[C@H](OC)C2)CC(=O)[C@H](C)/C=C(\C)[C@@H](O)[C@@H](OC)C(=O)[C@H](C)C[C@H](C)/C=C/C=C/C=C/1C`, the AUC(0-inf) was 4540 ng·h/mL (human, whole blood; oral, 25 mg, added: grapefruit juice).
`CC(C)NC[C@@H](C(=O)N1CCN(c2ncnc3c2[C@H](C)C[C@H]3O)CC1)c1ccc(Cl)cc1` has an AUC(0-∞) of 1030 ng·h/mL (human, Moderate hepatic function, plasma; oral, 100 mg single dose, NCI classification, geometric mean).
`Oc1ccc(C(c2ccc(O)cc2)(C(F)(F)F)C(F)(F)F)cc1` — result for “elimination (k10) half-life”: 0.439 h (female Hsd:Sprague Dawley rats, plasma; intravenous, 34 mg/kg, free compound).
`CCC(C)n1ncn(-c2ccc(N3CCN(c4ccc(OCC5COC(Cn6cncn6)(c6ccc(Cl)cc6Cl)O5)cc4)CC3)cc2)c1=O` (stereo not drawn) — result for gilteritinib exposure: “increased” (Sprague Dawley rat; 20 mg/kg, CYP3A4 inhibition, added: gilteritinib 10 mg/kg oral; baseline: gilteritinib alone).
`CC(C)[C@H](NC(=O)[C@@H]1CCCN1C(=O)[C@H](CCCNC(=N)N)NC(=O)[C@H](CS)NC(=O)[C@H](Cc1c[nH]c2ccccc12)NC(=O)[C@H](CCCNC(=N)N)NC(=O)[C@@H](Cc1ccccc1)NC(=O)[C@H](Cc1c[nH]cn1)NC(=O)[C@H](CCC(=O)O)NC(=O)[C@H](CS)NC(=O)[C@H](CS)NC(=O)[C@H](CCCCN)NC(=O)[C@@H]1CC(=O)N[C@@H](CCCNC(=N)N)C(=O)N[C@@H](C(C)C)C(=O)N[C@@H](CC(=O)O)C(=O)N[C@H](Cc2ccc(O)cc2)C(=O)N1)C(N)=O` [technetium-99m labelled] has a tissue uptake of 55.7 ± 9.14 %ID/g (C57 mouse, B16/F1 melanoma, kidneys; dose not given, 2 h, added: L-lysine 15 mg co-injected).
`NC(=O)c1ccc2c(c1)C(=O)CCc1ccccc1C(=O)N2` gave a kinetic solubility of > 100 µg/mL (nephelometry; aqueous buffer; 30 min, pH 6.5).
For `O=S(=O)(c1cc(Cl)c(O)c2ncccc12)C1CCCC1`, the free concentration was 32 nM (rat Sprague-Dawley male, plasma; oral, 10 mg/kg, 4 h).
`O=C1Nc2ccccc2C(=O)CCc2ccc(O)cc21` gave a kinetic solubility of 12.5 to 25 µg/mL (≈ 46.8 to 93.5 µM) (nephelometry; aqueous buffer; 30 min, pH 6.5).
Under “AUCtau at steady state”, `CCOC(=O)[C@H](C)C[C@@H](Cc1ccc(-c2ccccc2)cc1)NC(=O)CCC(=O)O` is recorded as 3260 ng·h/mL (male human, plasma; oral, 400 mg, day 7, alone, adjusted geometric mean).
`CCCOc1ccc([C@H]2CNC(=O)N2c2ccc3[nH]cnc3c2)cc1` gave an AUC(0-12h) of 171 ng·h/mL (human volunteers fasted, plasma; oral solution, 30 mg single dose, day 1, geometric mean).
`O=C(Nc1c(Cl)cncc1Cl)c1ccc(OC(F)F)c(OCC2CC2)c1` has a trough concentration of 0.511 ng/mL (human, age 6-11 years, plasma; topical, 0.3% cream once daily, 8 weeks).
`Cn1c(-c2ccc(C(N)=O)cc2F)nnc1C(C)(C)Oc1c(F)cc(Cl)cc1F` gave a half-life mean of 17.2 h (young non-Japanese adults, plasma; oral, 20 mg single dose, day 1, high-dose multiple-dose study).
`N=C(N)NC(=O)c1cnn(-c2cccc3ncccc23)c1C1CC1` gave a CLint of 84.4 ± 2.75 mL/min/kg (guinea pig Hartley male, hepatic S9; 1 µM, pH 7.4, added: without NADPH).
With `Cn1nnc2c(C(N)=O)ncn2c1=O` the plasma half-life was 0.757 ± 0.021 h (FVB mice, Abcb1a/b knockout; intravenous, 50 mg/kg).
Under “RBC/plasma partition coefficient”, `CS(=O)(=O)OC[C@H](O)[C@@H]1CO1` is recorded as 0.6 (rat, Wistar, both sexes, red blood cells and plasma; intraperitoneal, 500 mg/kg treosulfan, 1 and 4 h).
`Cn1ncnc1[C@H]1c2n[nH]c(=O)c3cc(F)cc(c23)N[C@@H]1c1ccc(F)cc1` — result for “freeze-thaw stability deviation”: -1.96% (mouse plasma; 80 ng/mL, three freeze-thaw cycles).
`Cc1cc(Nc2cc3ncccc3c(N[C@@H]3C[C@H]4CC[C@@H](C3)N4CCC#N)n2)n[nH]1`: fertility parameters “no effect” (Crl:CD Sprague Dawley rats; up to 1000 mg/kg/day).
`N#C[C@]1(CO)O[C@@H](n2cnc3c(=O)[nH]c(N)nc32)C[C@@H]1O` has a t1/2 of 1.18 ± 0.33 h (male Sprague-Dawley rat, plasma; oral, 1 mg/kg, added: entecavir 1 mg/kg).
With `CCCC[C@H](NC(C)=O)C(=O)N[C@H]1CCC(=O)NC[C@@H](C(=O)N[C@@H](Cc2c[nH]c3ccccc23)C(N)=O)NC(=O)[C@H](CCCNC(=N)N)NC(=O)[C@@H](Cc2ccccc2)NC(=O)[C@H](Cc2c[nH]cn2)NC1=O` the AUC(0-last) was 3610 ng·h/mL (beagle dog, female, plasma; subcutaneous, 40.0 mg/kg daily, day 1).
`CCCCCCCCCCCCCNCC(=O)N(CCCCN)CC(=O)N(CC(=O)N(CC(=O)N(CCN)CC(N)=O)C1CCCCC1)C1CCCCC1` — result for “acetonitrile at elution”: 69.3% (preparative RP-HPLC C18; water to acetonitrile gradient; 0.05% TFA in eluent; higher = more hydrophobic).
Under “elimination rate constant”, `O=C(CCCN1CCCN(c2ccc(Cl)cc2)CC1)c1ccc(F)cc1` is recorded as 0.000417 ± 0.000133 s⁻¹ (male Sprague-Dawley rats, plasma; intravenous, 1.7 mg/kg, added: HAL 0.7 mg/kg plus BCT 0.1 mg/kg).
`OC[C@H]1O[C@@H](c2ccc(Cl)c(Cc3ccc(O[C@H]4CCOC4)cc3)c2)[C@H](O)[C@@H](O)[C@@H]1O` gave an AUC of 4200 ng·h/mL (male ICR mouse, kidney; oral, 3 mg/kg, 24 h).
The t1/2 of `Oc1ccc2c3c(cnc2c1)-c1ccc(C(F)(F)F)cc1O[C@@H]3c1ccc(OCCN2CC(CF)C2)cc1` is reported as 114 h (measured: total radioactivity; healthy women, fasted, plasma; oral, 400 mg [14C]-labelled, single dose, mean).
`CN(C)C(=O)c1cc2cnc(Nc3ccc(N4CCNCC4)cn3)nc2n1C1CCCC1`: “QT prolongation grade 3” 2% (patients Rb+ solid tumours; oral, dose not given, all doses treatment-related).
For `CCC(CC)COC(=O)[C@H](C)N[P@](=O)(OC[C@H]1O[C@@](C#N)(c2ccc3c(N)ncnn23)[C@H](O)[C@@H]1O)Oc1ccccc1`, the equilibrium solubility was 8550 µg/mL (20% w/w aqueous SBECD; 24 h, pH 1.9, 25 °C, SBECD source 3).
`CCCS(=O)(=O)Nc1ccc(F)c(C(=O)c2c[nH]c3ncc(-c4ccc(Cl)cc4)cc23)c1F` gave an unbound fraction of 8.7e-06 ± 1.5e-06 (rapid equilibrium dialysis; 100% human plasma; 150 µM, 4 h).
For `CNc1nc(Nc2ccc(-n3cnc(C)n3)c(OC)c2)nc2c1CC[C@H]2c1ccc(F)cc1`, the AUC(0-t) was 128 ng·h/mL (human, plasma; oral, 10 mg, single dose, healthy volunteers).
For `Cc1ccc(-c2cc(C(F)(F)F)nn2-c2ccc(S(N)(=O)=O)cc2)cc1`, the unbound fraction was 1.86 ± 0.34% (equilibrium dialysis; dogs, albumin H1 allele, plasma; 4 µM).
`CC(=O)N[C@H](CCCCN)C(=O)N[C@H](CC(C)C)C(=O)N[C@@H](CCN)C(=O)N[C@H](CO)C(=O)N[C@H](CC(C)C)C(=O)N[C@H](CC(C)C)C(=O)N[C@@H](CCN)C(=O)N[C@@H](C(=O)N[C@H](CC(C)C)C(=O)N[C@H](CO)C(=O)N[C@@H](CCN)C(=O)N[C@H](C)C(=O)N[C@H](CCCCN)C(=O)N[C@H](C)C(=O)N[C@H](C)C(=O)N[C@H](CCCCN)C(=O)N[C@H](CC(C)C)C(=O)N[C@@H](CCN)C(=O)N[C@@H](C(=O)N[C@H](CC(C)C)C(=O)N[C@H](CC(C)C)C(=O)N[C@@H](CCN)C(=O)N[C@H](C)C(=O)N[C@H](CC(C)C)C(=O)N[C@H](CO)C(=O)N[C@@H](CCN)C(N)=O)[C@H](C)O)[C@H](C)O` has a self-association parameter of 0 min (RP-HPLC temperature profiling; pH 2; baseline: random coil control).
With `CO[C@H]1C[C@@H]2CC[C@@H](C)[C@@](O)(O2)C(=O)C(=O)N2CCCC[C@H]2C(=O)O[C@H]([C@H](C)C[C@@H]2CC[C@@H](OP(C)(C)=O)[C@H](OC)C2)CC(=O)[C@H](C)/C=C(\C)[C@@H](O)[C@@H](OC)C(=O)[C@H](C)C[C@H](C)/C=C/C=C/C=C/1C` the t1/2 was 55.8 ± 4.85 h (Japanese patients, whole blood; oral, 40 mg, day 1).
The parent remaining of `CC(=O)Nc1ccc(O)cc1` is reported as 74.5% (glutathione conjugation; human liver S9; 100 µM, 2 h, pH 7.4, added: glutathione 0.2 mM).
